Measured values gathered from unrelated publications.
Each line is one published result; not all experiments were run side by side. Several values in a cell are separate wells, animals, samples, runs or records.

`COC(=O)[C@@]1(Cc2ccccc2)C=C(C(=O)OC(C)(C)C)C(=O)CC1` gave a fraction bound of 0.0385 (MAPK14 (Homo sapiens, UniProt Q16539, C162A); peptide binding, fluorescence polarization; 1000 µM).
The remaining activity of `COC(=O)[C@@]1(C)C=C(C(=O)Nc2cccc(C(=O)Nc3ccc(Nc4nccc(-c5cccnc5)n4)c(C)c3)c2)C(=O)CC1` is reported as 0.125 (MAPK14 (Homo sapiens, UniProt Q16539); kinase activity, inhibitor; 400 µM, unit not given; reference: no inhibitor).
`C[C@@H]1C[C@H](Nc2ccccc2)c2cc(F)ccc2N1C(=O)c1ccc(Cl)c(F)c1` gave a pIC50 Z-score of 0.83 (Ecdysone receptor (Aedes albopictus, UniProt Q9U3Y4); ligand binding, inhibitor; intact cells; added: [3H]ponasterone A; direction not given).
Under “HAB1 phosphatase activity”, `O=[N+]([O-])c1cc(Br)cc([N+](=O)[O-])c1NS(=O)(=O)c1ccc(Br)cc1` is recorded as 0.083 a.u. and 0.09 a.u. and 0.081 a.u. (PYL10, with HAB1 (Arabidopsis thaliana, UniProt Q8H1R0); antagonist; 2.5 µM, added: ABA 5 µM; higher = more HAB1 activity).
For `CN(C(=O)[C@@H]1CSCC(=O)N[C@@H](Cc2ccccc2)C(=O)N[C@@H](CO)C(=O)N[C@@H](Cc2ccccc2)C(=O)N[C@@H](Cc2ccc(O)cc2)C(=O)N[C@@H](Cc2ccc(O)cc2)C(=O)N[C@@H](Cc2c[nH]cn2)C(=O)N[C@@H](Cc2c[nH]c3ccccc23)C(=O)N1)[C@@H](Cc1ccccc1)C(N)=O`, the ΔTm was 9.02 °C (STING1 (Homo sapiens, UniProt Q86WV6, H232R); thermal stability, DSF; 200 µM).
`C=CC(=O)N1CCCC(n2c(=O)c3ncccc3n(Cc3ccc(Oc4ccccc4)cc3)c2=O)C1` (stereo not shown) has a melting temperature of 49.4 °C and 46.4 °C (Elongin-C (Homo sapiens, UniProt Q15369); thermal proteome profiling, refers to: ELOC; treated).
For `C#CCOC(=O)[C@]1(C)C=C(C(=O)OC(C)(C)C)C(=O)CC1`, “normalized kinase activity” read 1.05 (MAPK8 (Homo sapiens, UniProt P45983); enzyme activity, D-SENSOR; 0.06097 µM, mean of replicates).
The binding stoichiometry of `CC(/C=C/C(=O)NO)=C\[C@@H](C)C(=O)c1ccc(N(C)C)cc1` is reported as 0.9 (HDAC8 (Homo sapiens, UniProt Q9BY41); ITC; triethanolamine buffer; concentration not given, pH 7.5).
`O=C(O)c1ccccc1SC1=NS(=O)(=O)c2ccccc21` — result for activity: “inactive” (PKLR (Homo sapiens, UniProt P30613); enzyme activity, activator; 10 µM).
`Cc1cc(C(=O)Nc2nc3cccc(C)c3n2[C@H]2CCCCN(C(=O)/C=C/CN(C)C)C2)ccn1` gave a kinase activity of 71.8% (CDC2-like kinase 1 (Trypanosoma brucei brucei, UniProt Q382U0); ADP-Glo; 0.07812 µM).
Under “isoTOP-ABPP competition ratio”, `CCCCCCCCCCCCC/C=C/C=O` is recorded as 1.6 (REEP5 (Homo sapiens, UniProt Q00765); competitive isoTOP-ABPP; Ramos soluble proteome; 100 µM, 60 min, added: iodoacetamide probe; reference: DMSO over compound-treated, higher = stronger cysteine blockade).
The remaining binding of `CC(=O)N1c2ccc(-c3ccc(CNC(=O)c4cn5cc(-c6cnc(N)nc6)nc(N6CCOCC6)c5n4)cc3)cc2CC[C@@H]1C` is reported as 0.5% (Bromodomain-containing protein 2, BD1 (BRD2, Homo sapiens, UniProt P25440); binding, competition with immobilised ligand; 10 µM).
`CCC1(CC)C(=O)N(c2cc(O)cc(C(=O)N3CCN(Cc4ccc(Br)cc4)CC3)c2)C1=O` — result for “activity vs control”: < 5% (Dipeptidyl peptidase 8 (Homo sapiens, UniProt Q6V1X1); enzyme activity, inhibitor; 5 µM).

Excerpt of the above:
`Cc1cc(C(=O)Nc2nc3cccc(C)c3n2[C@H]2CCCCN(C(=O)/C=C/CN(C)C)C2)ccn1` gave a kinase activity of 71.8% (CDC2-like kinase 1 (Trypanosoma brucei brucei, UniProt Q382U0); ADP-Glo; 0.07812 µM).
Under “isoTOP-ABPP competition ratio”, `CCCCCCCCCCCCC/C=C/C=O` is recorded as 1.6 (REEP5 (Homo sapiens, UniProt Q00765); competitive isoTOP-ABPP; Ramos soluble proteome; 100 µM, 60 min, added: iodoacetamide probe; reference: DMSO over compound-treated, higher = stronger cysteine blockade).
